Results of several laboratories.
Protocols differ between the studies behind these lines. ± marks the error that the study gave.

COc1ccc(-n2c(SCc3ccncc3)nnc2[C@H](Cc2ccccc2)NC(=O)Cc2c(C)[nH]c3ccccc23)cc1 — CC50 (MT-4): 24.8 ± 2.41 µM
CCCCN1C(=O)c2ccc3c4c(ccc(c24)C1=O)C(=O)N(CCNc1c2ccc(Cl)cc2nc2ccc(OC)cc12)C3=O — CC50 (NIH3T3; cell growth or viability, MTT): > 0.02 µM
Nc1ncnc2c1ncn2[C@@H]1O[C@H](CO)[C@@H](O)[C@H]1F — CC50 (MOLT-4; cell growth or viability, SRB; 11 days): 81 µM
COc1ccc(-n2c(SCCF)nnc2[C@H](Cc2ccccc2)NC(=O)Cc2c(C)[nH]c3ccccc23)cc1 — CC50 (MT-4): 25 ± 1.45 µM
COc1cc(O)cc(O)c1C(=O)/C=C/c1ccccc1 — CC50 (MT2; cell growth or viability, ATP luminescence; 48 h): > 100 µM
CCN(CC)CCCSC(=S)N1CCN(C(=O)/C=C/c2coc3ccc(OC)cc3c2=O)CC1 — protective effect (tomato spotted wilt virus; viral infection, half-leaf method; Nicotiana glutinosa; 500 µg/mL): 57.5 ± 5.6%
COc1ccc(-n2c(SCCCN3CCOCC3)nnc2[C@H](Cc2ccccc2)NC(=O)Cc2c(C)[nH]c3ccccc23)cc1 — CC50 (MT-4): 48.5 ± 19.9 µM
CCN(Cc1cccc(S(=O)(=O)O)c1)c1ccc(C(=C2C=CC(=[N+](CC)Cc3cccc(S(=O)(=O)[O-])c3)C=C2)c2ccccc2)cc1 — CC50 (MT2; 3 days): 190 ± 14.4 µM
N=C(N)NCCC[C@@H]1NC(=O)[C@H](Cc2c[nH]c3ccccc23)NC(=O)[C@@H](CC2CCCCC2)NC(=O)[C@@H]2CCCN2C(=O)[C@@H](NC(=O)CCc2ccccc2)CCCNC1=O — MRT(0-inf) (C57BL/6J mouse, plasma plasma; subcutaneous, 1 mg/kg single dose): 1.07 h
OC[C@H]1O[C@@H](n2cnc3c(O)ncnc32)[C@H](F)[C@@H]1O — CC50 (MOLT-4; sulforhodamine B; 11 days, galactose medium): > 250 µM
Cc1nc([C@@H](NC(=O)c2ccc(-c3ccc(Cl)cc3)[nH]2)[C@@H]2CCCCN2)sc1CO — CC50 (MT2; cell growth or viability, XTT): ~20 µM
[64Cu+2].c1ccc(CNCc2ccc(CN3CCCN4CCNCCCN(CC4)CC3)cc2)nc1 — tissue uptake (CXCR4; NOD/SCID mouse, U87 and U87-stb-CXCR4 xenografts, spleen; iv, 240 min, ex vivo): 15.2 ± 1.8 %ID/g
COc1ccc(-n2c(SCC#N)nnc2[C@H](Cc2ccccc2)NC(=O)Cc2c(C)[nH]c3ccccc23)cc1 — CC50 (MT-4): 95.8 ± 69.6 µM
O=[N+]([O-])/C=C/c1ccco1 — CC50 (KB; cell viability, alamarBlue; 72 h, 10% FCS): 11.6 ± 3.6 µM
Nc1ccn([C@@H]2O[C@H](CO)[C@@H](O)[C@H]2F)c(=O)n1 — CC50 (MOLT-4; cell growth or viability, SRB; 11 days): 7.7 µM
COc1ccc(S(=O)(=O)O)cc1N=Nc1c(S(=O)(=O)O)cc2cc(NCc3nc(CNc4cc(C)c(N=Nc5cc(S(=O)(=O)O)cc6cc(S(=O)(=O)O)cc(O)c56)cc4OC)nc(Nc4ccccc4)n3)ccc2c1O — CC50 (U87.CD4.R5.X4; 3 days): 515 ± 6 µM
CCOC(=O)c1c(C(=O)OC)cn(CC(c2cn(C)c3ccccc23)c2cn(C)c3ccccc23)c1C — CC50 (DH82; cell growth or viability, MTS; 72 h): > 200 µM
O=[N+]([O-])/C(Br)=C/c1ccco1 — CC50 (KB; cell viability, alamarBlue; 72 h, 10% FCS): 16.6 ± 3.8 µM
CCC(=O)N(C)c1ccc(Cl)c(Cl)c1 — cells with multiple aberrations (CHO-WBL; 0.032 mg/mL, 3 h, without S9 activation): 0%
O=C(/C=C/c1coc2ccccc2c1=O)N1CCN(C(=S)SCc2ccccc2)CC1 — inactivation effect (tomato spotted wilt virus; viral infection, half-leaf method; Nicotiana glutinosa; 500 µg/mL): 53.2 ± 5.4%
COc1ccc(-n2c(SCCN(C)C)nnc2[C@H](Cc2ccccc2)NC(=O)Cc2c(C)[nH]c3ccccc23)cc1 — CC50 (MT-4): 22.9 ± 0.38 µM
O=c1ccn([C@@H]2O[C@H](CO)[C@@H](O)[C@H]2F)c(=O)[nH]1 — CC50 (MOLT-4; cell growth or viability, SRB; 11 days): > 250 µM

Excerpt of the above:
CCOC(=O)c1c(C(=O)OC)cn(CC(c2cn(C)c3ccccc23)c2cn(C)c3ccccc23)c1C — CC50 (DH82; cell growth or viability, MTS; 72 h): > 200 µM
CCC(=O)N(C)c1ccc(Cl)c(Cl)c1 — cells with multiple aberrations (CHO-WBL; 0.032 mg/mL, 3 h, without S9 activation): 0%
COc1ccc(-n2c(SCCN(C)C)nnc2[C@H](Cc2ccccc2)NC(=O)Cc2c(C)[nH]c3ccccc23)cc1 — CC50 (MT-4): 22.9 ± 0.38 µM
CCN(Cc1cccc(S(=O)(=O)O)c1)c1ccc(C(=C2C=CC(=[N+](CC)Cc3cccc(S(=O)(=O)[O-])c3)C=C2)c2ccccc2)cc1 — CC50 (MT2; 3 days): 190 ± 14.4 µM
